Experimental data gathered from unrelated publications.
Each numbered part is a random draw from the data of one study; scales do not carry over between parts. Positions count from the first letter of the parent shown.

Block 1
Target: CCNE1, cyclin fold, Cln2 fusion (human)
Method: yeast growth competition, sequencing
Sample: yeast
Setting: strong parent motif
Baseline: not given
Reading: higher = stronger binding
Starting sequence: CDC25A docking peptide (human); PPHRRRLLFACSP
Substitution	normalised enrichment score
YPHRRRLLFACSP [P1Y]	1.25
PPHRRALLFACSP [R6A]	0.52
PPHRRRLLPACSP [F9P]	0.117
PPHVRRLLFACSP [R4V]	4.16
PPHIRRLLFACSP [R4I]	1.99
PPHRRRLLFAYSP [C11Y]	1.11
PPHRRRHLFACSP [L7H]	0.565
PPHRRRLLFGCSP [A10G]	1.15
PPHRRRLMFACSP [L8M]	1.12
PPHNRRLLFACSP [R4N]	1.32
PPHRRRLNFACSP [L8N]	2.29
PPHRMRLLFACSP [R5M]	1.37
PPHRRRLLFACSM [P13M]	1.44
PPHRRRLLFACSG [P13G]	1.45
PPIRRRLLFACSP [H3I]	0.901
PPQRRRLLFACSP [H3Q]	0.691
PPHRRRLLFACFP [S12F]	1.2
PPHRRRLLFACSI [P13I]	1.56
PPYRRRLLFACSP [H3Y]	1.98
PPHRRRSLFACSP [L7S]	0.223
PPHRRRLWFACSP [L8W]	1.31
PPHRSRLLFACSP [R5S]	0.659
PPHRRRLLFAQSP [C11Q]	1.73
PMHRRRLLFACSP [P2M]	1.44
PPHRRRLLFACAP [S12A]	1.24

Block 2
Target: UBE2V1 UBC core domain (UniProt Q13404)
Method: yeast two-hybrid
Sample: yeast
Setting: mostly zero background
Baseline: not given
Reading: higher = stronger interaction
B1: TRIM5 RING domain (UniProt Q9C035); chain LREVKLSPEGQKVDHCARHGEKLLLFCQEDGKVICWLCERSQEHRGHHTFLTEEVAREYQVKL
B2: MKRN1 RING domain (UniProt Q9UHC7); chain FAVQRSKDMVCGICMEVVYEKANPSERRFGILSNCNHTYCLKCIRKWRSAKQFESKIIKSCPECRITSNFVIPSE
B3: TRIM5 RING domain (UniProt Q9C035); chain ILVNVKEEVTCPICLELLTQPLSLDCGHSFCQACLTANHKKSMLDKGESSCPVCRISYQPENIRP
B4: RNF38 RING domain (UniProt Q9H0F5); chain PNNHQSEQTLCVVCMCDFESRQLLRVLPCNHEFHAKCVDKWLKANRTCPICRADASEVHRDS
B5: TRIM43 RING domain (UniProt Q96BQ3); chain FSHAFQKELTCVICLNYLVDPVTICCGHSFCRPCLCLSWEEAQSPANCPACREPSPKMDFKT
B6: RNF111 RING domain (UniProt Q6ZNA4); chain EGTEEDTEEKCTICLSILEEGEDVRRLPCMHLFHQVCVDQWLITNKKCPICRVDIEAQLPSE
B7: SH3RF2 RING domain (UniProt Q8TEC5); chain DDLTLLDLLECPVCFEKLDVTAKVLPCQHTFCKPCLQRVFKAHKELRCPECRTPVFSNIEAL
B8: DTX4 RING domain (UniProt Q9Y2E6); chain QKVRHPPDEDCTICMERLTAPSGYKGPQPTVKPDLVGKLSRCGHVYHIYCLVAMYNNGNKDGSLQCPTCKTIYGVKTGTQ
Target sequence (chain): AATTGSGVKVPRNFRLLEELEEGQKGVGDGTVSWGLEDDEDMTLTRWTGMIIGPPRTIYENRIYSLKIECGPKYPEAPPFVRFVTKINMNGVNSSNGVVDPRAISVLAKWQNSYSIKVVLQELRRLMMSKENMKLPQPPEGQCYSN
Molecule	lacZ reporter activity
B1 (TRIM5 RING domain)	0
B2 (MKRN1 RING domain)	0
B3 (TRIM5 RING domain)	0
B4 (RNF38 RING domain)	0
GAAPGPEAAECLVCSELALLVLFSPCQHRTVCEECARRMKKCIRCQVVVSKKLRPD (MIB2 RING domain (UniProt Q96AX9))	0
B5 (TRIM43 RING domain)	0
B6 (RNF111 RING domain)	0
B7 (SH3RF2 RING domain)	0
ASLPTSEEDLCPICYAHPISAVFQPCGHKSCKACINQHLMNNKDCFFCKTTIVSVEDWE (RNF123 RING domain (UniProt Q5XPI4))	0
VEPSEENSKDCVVCQNGTVNWVLLPCRHTCLCDGCVKYFQQCPMCRQFVQESFALC (CGRRF1 RING domain (UniProt Q99675))	0
B8 (DTX4 RING domain)	0

Block 3
Target: Histone acetyltransferase KAT6A, winged helix 2, GST fusion (KAT6A, Homo sapiens, UniProt Q92794, residues 85-181)
Method: protein binding microarray
Molecule type: double-stranded DNA, one strand shown
Sample: in vitro
Concentration: not given
Setting: 8-mer, flanks averaged, mean of 2 arrays, mostly near background
Baseline: not given
Reading: higher = stronger binding
Residues (chain): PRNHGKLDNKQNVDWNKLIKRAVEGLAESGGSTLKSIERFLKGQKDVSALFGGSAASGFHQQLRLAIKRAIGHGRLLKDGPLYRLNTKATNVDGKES
Sequence	E-score
CGACAGCC	-0.0777
AGCTACCA	-0.0764
ATAGGGGG	-0.259
GAAATGTA	-0.0316
AACTTGTA	-0.163
TGAAAAAA	0.208
AAATAATA	0.136
AACGTGAT	-0.0874
CACCGACC	0.0924
GGGTGAAC	0.164
GAATGGAA	0.155
TAGTTATA	-0.0612
CAGGGATA	-0.0834
CGCATAGC	0.0573
GTTGAAAC	0.123
CCCCGTAA	-0.0353
ACGATACA	-0.0205
CACTATAA	-0.18
GCCAAGCC	0.054
CAATTATC	-0.0765

Block 4
Target: RING finger protein unkempt homolog, zinc fingers 1-6, GST-SBP tag (UNK, Homo sapiens, UniProt Q9C0B0, residues 30-357)
Method: RNA Bind-n-Seq
Molecule type: RNA
Sample: in vitro
Concentration: not given
Setting: RNA with constant flanks, human-mouse chimeric sites, ends assumed
Baseline: input RNA pool
Reading: higher = stronger binding
Target sequence (chain): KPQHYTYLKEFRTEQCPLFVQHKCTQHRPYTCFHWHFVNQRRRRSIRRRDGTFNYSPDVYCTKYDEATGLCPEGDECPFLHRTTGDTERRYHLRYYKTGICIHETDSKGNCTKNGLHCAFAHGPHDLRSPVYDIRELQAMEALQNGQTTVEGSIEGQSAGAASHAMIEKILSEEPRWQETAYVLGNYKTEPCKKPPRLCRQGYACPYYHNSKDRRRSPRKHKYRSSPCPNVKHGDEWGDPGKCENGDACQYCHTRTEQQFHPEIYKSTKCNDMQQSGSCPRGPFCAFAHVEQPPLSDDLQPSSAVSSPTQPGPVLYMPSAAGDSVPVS
Sequence	bound/input enrichment
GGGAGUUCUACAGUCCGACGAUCAUCAAGUACUUUGGGGACAUCAUUAGUGUGGGACAGAGACUGUUGCAAGGAGCUCGGAUCUUAGGGAUUCCUGUUAUCAUAACGGAACAAUACCCCAAAGGACUUGGCAGCACCGUUCAACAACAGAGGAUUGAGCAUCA	0.151 ratio
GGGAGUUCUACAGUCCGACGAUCUCUUUAAAAAAAAAAUUACCUUUUCUGACAGUGCUUUCCCUCCCAUAGAUCCACGUUCAAGCUCAAAGAGCAAAGGCUCCGCAAACAUCUGAUGAUGCUGAUGAAGAAAGAUUUCUGAGACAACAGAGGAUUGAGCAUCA	1.22 ratio
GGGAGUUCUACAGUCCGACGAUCAGAGCCCAGGAUGUUGAUGCUACAAAUCCAAAUUACGAAAUUAUGUGUAUGAUCAGAGACUUCAGAGGAAGUUUGGAUUACAGACCCUUAACAACAGCAGAUCCUAUUGAUGAACAUAGGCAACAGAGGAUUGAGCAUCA	0.418 ratio
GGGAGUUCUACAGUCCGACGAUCAAAAUAGACUAUGGCGAAUACAUGGAUAAAAACAAUGUGAGGCGGCAAGCAACAACAAUCAUAGCUGAUAACAUUAUAUUUCUGAGUGACCAGACAAAAGAAAAGGCAUAGAACGGAUGACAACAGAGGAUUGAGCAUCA	3.44 ratio
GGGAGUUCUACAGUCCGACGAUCAGAAAGCAAAACUUGGAAAGAUUUAAGAAAGGAGACGUAAGAUUCUUGAUUUGCACAGAUGUAGCUGCUAGAGGGAUUGAUAUCCAUGGCGUUCCUUAUGUGAUCAACGUCACCCUGCCUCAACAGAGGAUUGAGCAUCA	0.276 ratio
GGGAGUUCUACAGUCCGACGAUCUGACAAGGGCACUGCAGAGCCAUGCCUUUCCUUGACAUCCAGAAAAGGCUGGGCAUCAACAUAGAUCGGCACUUUAUGUUCCUAAGCGCAGAACAGCCCUAUAAGAACGCCGCUCGGUGCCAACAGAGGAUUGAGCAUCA	0.0741 ratio
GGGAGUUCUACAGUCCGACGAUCGAUAAGAAAAGCUUGUUGGAGACCCGCUUGCAUGUCACUGGUAGAGACCUGAGGUGUCAAAUAGCUGAAACUUUCGGAUUUCAAGAAAAUUAUAUCAAAAUUGUCAUAAAUAAGAAACAGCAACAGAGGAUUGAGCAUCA	0.649 ratio
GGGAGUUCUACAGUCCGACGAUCGCUGGAUCUUCUAAGUACCAGUGGGACAUUAUGAAAUCCCUUGGGCUCUCUGAUGACGACAUAGUGAAGUUUUCUGAAGCAGAGCACUGGCUUGAUUAUUUCCCGCCACUGGCCGUUCAGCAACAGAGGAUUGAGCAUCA	0.131 ratio

Repeated from above (block 4):
Sequence	bound/input enrichment
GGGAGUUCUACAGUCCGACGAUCAGAAAGCAAAACUUGGAAAGAUUUAAGAAAGGAGACGUAAGAUUCUUGAUUUGCACAGAUGUAGCUGCUAGAGGGAUUGAUAUCCAUGGCGUUCCUUAUGUGAUCAACGUCACCCUGCCUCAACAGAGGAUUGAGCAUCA	0.276 ratio
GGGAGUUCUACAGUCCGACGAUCAGAGCCCAGGAUGUUGAUGCUACAAAUCCAAAUUACGAAAUUAUGUGUAUGAUCAGAGACUUCAGAGGAAGUUUGGAUUACAGACCCUUAACAACAGCAGAUCCUAUUGAUGAACAUAGGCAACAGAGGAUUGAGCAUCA	0.418 ratio
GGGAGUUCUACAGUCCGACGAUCGCUGGAUCUUCUAAGUACCAGUGGGACAUUAUGAAAUCCCUUGGGCUCUCUGAUGACGACAUAGUGAAGUUUUCUGAAGCAGAGCACUGGCUUGAUUAUUUCCCGCCACUGGCCGUUCAGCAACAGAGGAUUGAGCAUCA	0.131 ratio
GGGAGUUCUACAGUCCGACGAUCAAAAUAGACUAUGGCGAAUACAUGGAUAAAAACAAUGUGAGGCGGCAAGCAACAACAAUCAUAGCUGAUAACAUUAUAUUUCUGAGUGACCAGACAAAAGAAAAGGCAUAGAACGGAUGACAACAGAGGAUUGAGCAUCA	3.44 ratio
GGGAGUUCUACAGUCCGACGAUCUGACAAGGGCACUGCAGAGCCAUGCCUUUCCUUGACAUCCAGAAAAGGCUGGGCAUCAACAUAGAUCGGCACUUUAUGUUCCUAAGCGCAGAACAGCCCUAUAAGAACGCCGCUCGGUGCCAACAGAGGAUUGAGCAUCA	0.0741 ratio
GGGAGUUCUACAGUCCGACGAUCGAUAAGAAAAGCUUGUUGGAGACCCGCUUGCAUGUCACUGGUAGAGACCUGAGGUGUCAAAUAGCUGAAACUUUCGGAUUUCAAGAAAAUUAUAUCAAAAUUGUCAUAAAUAAGAAACAGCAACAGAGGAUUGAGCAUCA	0.649 ratio
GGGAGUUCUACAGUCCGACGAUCAUCAAGUACUUUGGGGACAUCAUUAGUGUGGGACAGAGACUGUUGCAAGGAGCUCGGAUCUUAGGGAUUCCUGUUAUCAUAACGGAACAAUACCCCAAAGGACUUGGCAGCACCGUUCAACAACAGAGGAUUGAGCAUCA	0.151 ratio
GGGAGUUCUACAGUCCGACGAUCUCUUUAAAAAAAAAAUUACCUUUUCUGACAGUGCUUUCCCUCCCAUAGAUCCACGUUCAAGCUCAAAGAGCAAAGGCUCCGCAAACAUCUGAUGAUGCUGAUGAAGAAAGAUUUCUGAGACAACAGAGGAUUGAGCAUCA	1.22 ratio
